Experimental data pooled from the literature.
Every numbered part comes from another study and shows a few of its results, in no order. Substitutions count along the parent as printed.

Set 1
Target: UBE2J2 UBC core domain (UniProt Q8N2K1)
Technique: yeast two-hybrid
Matrix: yeast
Setting: mostly zero background
Baseline: not given
Reading: higher = stronger interaction
B1: RNF32 RING domain (UniProt Q9H0A6); chain SLLQGDSVQPCPICKEEFELRPQVLLSCSHVFHKACLQAFEKFTNKKTCPLCRKNQYQTRVIH
B2: TRIM55 RING domain (UniProt Q9BYV6); chain TMDNLEKQLICPICLEMFTKPVVILPCQHNLCRKCASDIFQASNPYLPTRGGTTMASGGRFRCPSCRHEVVLDRHG
B3: RNF5 RING domain (UniProt Q99942); chain ERGGAGATFECNICLETAREAVVSVCGHLYCWPCLHQWLETRPERQECPVCKAGISREKVVP
B4: TRIM38 RING domain (UniProt O00635); chain STKKMMEEATCSICLSLMTNPVSINCGHSYCHLCITDFFKNPSQKQLRQETFCCPQCRAPFHMDSLRP
B5: UBE4A RING domain (UniProt Q14139); chain LQQQEEETYADACDEFLDPIMSTLMCDPVVLPSSRVTVDRSTIARHLLSDQTDPFNRSPLTMDQIRPNTELKEKIQRWLAERKQQKEQLE
B6: TRIM3 RING domain (UniProt O75382); chain VQPMDKQFLVCSICLDRYQCPKVLPCLHTFCERCLQNYIPAQSLTLSCPVCRQTSILPEQGV
B7: TRIM35 RING domain (UniProt Q9UPQ4); chain PSRSFKEELLCAVCYDPFRDAVTLRCGHNFCRGCVSRCWEVQVSPTCPVCKDRASPADLRT
B8: RNF43 RING domain (UniProt Q68DV7); chain SGSSCSSAPVCAICLEEFSEGQELRVISCLHEFHRNCVDPWLHQHRTCPLCMFNITEGDSFS
B9: RNF175 RING domain (UniProt Q8N4F7); chain LPTRSLSDNICAVCGQKIIVELDEEGLIENTYQLSCNHVFHEFCIRGWCIVGKKQTCPYCKEKVDLKRMIS
B10: PHF7 RING domain (UniProt Q9BWX1); chain IQHGHVGEESCILCCEDLSQQSVENIQSPCCSQAIYHRKCIQKYAHTSAKHFFKCPQCNNRKEFPQEML
B11: RNF150 RING domain (UniProt Q9ULK6); chain DKETESDFDNCAVCIEGYKPNDVVRILPCRHLFHKSCVDPWLLDHRTCPMCKMNILKALGIP
B12: TRIM15 RING domain (UniProt Q9C019); chain SLKVVHELPACTLCAGPLEDAVTIPCGHTFCRLCLPALSQMGAQSSGKILLCPLCQEEEQAETPMA
Target sequence (chain): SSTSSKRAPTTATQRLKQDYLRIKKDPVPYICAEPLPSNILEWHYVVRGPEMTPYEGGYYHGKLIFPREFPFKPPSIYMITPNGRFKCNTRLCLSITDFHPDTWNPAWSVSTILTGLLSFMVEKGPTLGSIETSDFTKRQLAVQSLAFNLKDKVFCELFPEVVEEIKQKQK
Sequence | lacZ reporter activity
B1 (RNF32 RING domain) | 0
B2 (TRIM55 RING domain) | 3080
B3 (RNF5 RING domain) | 0
B4 (TRIM38 RING domain) | 0
B5 (UBE4A RING domain) | 0
B6 (TRIM3 RING domain) | 0
B7 (TRIM35 RING domain) | 0
B8 (RNF43 RING domain) | 0
MANWVFCNRCFQPPHRTSCFSLTNCGHVYCDACLGKGKKNECLICKAPCRTVLLSK (RNF212 RING domain (UniProt Q495C1)) | 0
B9 (RNF175 RING domain) | 0
B10 (PHF7 RING domain) | 0
KRQCSDVDDICSICQAEFQKPILLICQHIFCEECMTLWFNREKTCPLCRTVISDHINKW (RNFT1 RING domain (UniProt Q5M7Z0)) | 8880
B11 (RNF150 RING domain) | 0
B12 (TRIM15 RING domain) | 0
KIKDLNEHIVCCLCAGYFVDATTITECLHTFCKSCIVKYLQTSKYCPMCNIKIHETQPLL (PCGF1 RING domain (UniProt Q9BSM1)) | 0

Set 2
Target: CCND2, cyclin fold, Cln2 fusion (human)
Technique: yeast growth competition, sequencing
Matrix: yeast
Setting: weak parent motif
Baseline: not given
Reading: higher = stronger binding
Parent: CDC6 docking peptide (human); TLKGRRLVFDNQL; partner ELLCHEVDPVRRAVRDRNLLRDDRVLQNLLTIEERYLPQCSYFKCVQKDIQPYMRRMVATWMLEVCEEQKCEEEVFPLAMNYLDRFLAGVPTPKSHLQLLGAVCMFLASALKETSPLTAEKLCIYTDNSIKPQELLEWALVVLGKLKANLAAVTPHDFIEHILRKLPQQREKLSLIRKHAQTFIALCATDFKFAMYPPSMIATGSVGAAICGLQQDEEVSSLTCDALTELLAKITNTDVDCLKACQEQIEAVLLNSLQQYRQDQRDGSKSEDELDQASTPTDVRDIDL
Change | normalised enrichment score
L7E | -0.126
Q12D | 0.74
L13G | 0.361
R6M | 0.0772
T1A | 0.473
L13R | 0.195
Q12C | 0.0919
L2N | -0.0571
F9C | -0.224
R5W | -0.0142
F9T | 0.144
L7Q | 0.615
R5E | 0.205
K3H | -0.152
V8Y | 0.136
Q12L | 0.6
L2H | 0.1
L2R | 1.2
R5M | 0.156
N11H | 0.201
G4Q | 0.114
T1V | 0.448
R5G | 0.278
G4P | 0.37

Set 3
Target: RNA binding protein fox-1 homolog 2, RRM domain, GST-SBP tag (RBFOX2, Homo sapiens, UniProt O43251-10, residues 100-194)
Technique: RNA Bind-n-Seq
Form: RNA
Matrix: in vitro
Tested at: 365 nM
Setting: natural RNA segment, single round, ends assumed
Baseline: no-protein control
Reading: higher = stronger binding
Constant ends, left off below: GGGAGUUCUACAGUCCGACGAUC … UGGAAUUCUCGGGUGCCAA
Residues (chain): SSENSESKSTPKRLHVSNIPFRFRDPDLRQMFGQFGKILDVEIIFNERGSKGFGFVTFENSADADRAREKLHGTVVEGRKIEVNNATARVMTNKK
Sequence | RBNS enrichment (R)
GCUAUUCUGCCAAAAGACAUUUUCUAGAAUAGUUUUUAAUGGGUUACUGUCCUUACCCUUCAUCCAACAAACUCUGAAGCCAGUCUCUAGCUUACUGCAAGAAAAAGAAG | 0.291
CAGCUGUCAUCACUGACGUAUGCACAAAACCAGACCGUUGAUCCCUGGUAUUCCAAGUUGAGUAUGGGUUGAACUGGAAAAUUCCCUGAGGCAUAACUUGUUAGCCAAUU | 0.302
AUAGAGGUCAUAUAGUUGGGCCAUGGGGCAAUUGUUGGCAGCCAUGACUGACGGCCCCUUGUGCAAGCUCAUUCUUCAGUGGAUCCUUCAGUGGAGUGGUGACACGUGCC | 0.241
GGUUAAAGUAACUCCUGGCAUUGCCCACCAGGGGGCUGGUGCACCUGCUGACCUCAGGGUCACAGUUGAGUCAUUUGCCAGUUGACGGAGCAAGUUUGACCUUGGUUCUG | 0.354
UCACAUGCUUGUGCCCUGGAAGCCCCAAGGCUCUUCCUCCAGCUGGCUCCCUUGUCUCCAGGGCUUUGGAGGAUCAGGGUAGGGAGGGCUCUGUCUCUAAGCCAGGUGUC | 0.494
AAAAGAGGUAAGACUGAGACUAAAGGUGUUAUCUUCUGGUGUGCUCCUGGAAGUGUCUACCCUACAUUUGUGUCAGCUCAGGGUUGCAGUGUUGCCCAGAUGCAUUUUAC | 0.814
GUAUUAUUUUUACUGUUAAAAAAUUUUUUAAAAAUGUGAAAUGUAAUGUUUUUACAGCAACAAUAUGAAAUAUAUUUUAUAAGGAAUAAAAUGGUACCUUGUCUGAUUUA | 0.596
UUGGAAGCCAGGUUUCCUUACACUAAGGUAGGUCUAGGUUCUUCGGAAACUAAGAUAAACUUAGUGUAUCUGAGAAGAAUACCUGUCCAUCUUGCUACCCGCUUUUGCCU | 0.262
UAGCUAUUUUCACUUGUAUGUAUAUAUUGUAUAUACAUAUAAGUGUCUGUAUGUGUGUAUAGAUGGAUUGGUAUAACUCAUUCUAAACGUGUCUGCCAGGGCUCAAGUUU | 0.334
AUCUUUGCUACCUAGAACCUGCAGUCUGUUUUAUGGCAACACUGGAUAAUGGCUUUUUGAAAUUGAGGGGGAAAAAUUGGAGCAUCUGUAAACAGAAAUGCCAAAUUAUU | 0.796
UGUAUUAUGACUGCUGGUGGUAAGAGGAAUAUCUUUAAAUUUCUUAUGAAAACAAAUCCACAUUCAUUAUUUCACAUUUGUCUAAGAGGUUAAGUAUCUGAAGGGAGGGU | 0.367
ACUCUGUGACGGAGCUGAAGGACUCUUGCCGUAGAUUAAGCCAGUCAGUUGCAAUGUGCAAGACAGGCUGCUUGCCGGGCCGCCCUCGGAACAUCUGGCCCAGCAGGCCC | 0.526

Set 4
Target: Centromere-binding protein 1, full length, N-terminal tag (CBF1, Saccharomyces cerevisiae, UniProt P17106, residues 1-351)
UniProt P17106, sequence (whole entry, looked up): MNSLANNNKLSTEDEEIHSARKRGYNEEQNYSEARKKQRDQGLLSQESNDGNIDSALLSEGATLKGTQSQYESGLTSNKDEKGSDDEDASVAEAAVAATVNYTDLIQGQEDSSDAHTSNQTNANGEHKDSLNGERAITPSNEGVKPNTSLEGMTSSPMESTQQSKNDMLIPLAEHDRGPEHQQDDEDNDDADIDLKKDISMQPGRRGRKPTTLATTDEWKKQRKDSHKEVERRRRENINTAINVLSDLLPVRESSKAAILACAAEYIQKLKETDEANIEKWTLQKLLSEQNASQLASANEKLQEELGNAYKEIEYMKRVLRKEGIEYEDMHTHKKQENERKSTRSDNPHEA
Technique: protein-binding microarray
Form: double-stranded DNA, one strand shown
Matrix: in vitro
Tested at: 0.8 µM
Setting: whole 60-bp probe, no competitor
Reading: higher = stronger binding
Constant ends, left off below: … GTCTTGATTCGCTTGACGCTGCTG
Sequence | fluorescence intensity [a.u.]
CTATTTCGAAGAGCTCATCAGACGTTTTTCAGTTTC | 534
GAATATGGTTAATGTCACGAGATGAATTGTTATTAG | 1910
CTAATGGAGTTTTCAAACGTGGAACAAAGAACCTTC | 549
CTACCCTGCATAGTTGTCACGGTTTGGACTATATTC | 634
GAAATACACAAAGTGCACATGATCTTATAAAGTTAG | 2100
CTATATCCAGGCGGTGGTGGTGGTGGTGGTGGATTC | 485
CTACACAAATATTTACACGTGAGAGAAAGGAAGTTC | 3640
CTATTTGCAGATCATCACCCTGTGCGTTTTACATTC | 619
CTATGAAGATAGTGCAACACGTCTGGTGATATCTTC | 590
TGTACGAAGCTATAACACACGCATATAGTAGTTAGG | 529
GAATTATACTACTATTTCATCAGATTTGTGCTTTAG | 505
CTATATGCTAAAATTCACGTGTACGCATTTCAATTC | 2920
CTATCCATAATGTTATATGTGATCTTTATCAACTTC | 531
GAATCTCTGACTGGACTGATGATGTTGAAGCCCTAG | 547
CTAATCTGTCAGCAACATCAGTTGTGTGAGCAATTC | 543
GAATTTTTTTTTCATCACGCAAAGGAAATACAATAG | 705
